Assay results from different studies.
Effect on: metabolic stability
Host: human
Medium: liver microsomes

Structure (SMILES) | tested at | time | pH | compound remaining [%]
COc1ccc(S(=O)(=O)Nc2ccc(NS(=O)(=O)c3cnn(C)c3)cc2CCC(=O)O)cc1 | 10 µM | 30 min | pH 7.4 | 61.2
Clc1ccc2c(c1)nc(NCC1CCCN1)n2Cc1ccccc1 (stereo not drawn) | 0.1 µM | 30 min | pH 7.4 | 98.9
COc1cc(C)c(-c2ccc(O)c3c2C[C@@H](C)N[C@@H]3C)c2cccc(O)c12 (single isomer, unassigned) | 1 µM | 30 min |  | 83
Clc1ccc2c(c1)nc(N1CC3CNCC3C1)n2Cc1ccccc1 (stereo not drawn) | 0.1 µM | 30 min | pH 7.4 | 92.2
CC(C)Cn1c(SCC(=O)N2CCc3ccccc3C2)nc2cc(Cl)ccc2c1=O |  | 1 h |  | 0.1
CC1=N[C@H](C)Cc2c(-c3ccc(C)cc3)ccc(O)c21 | 1 µM | 30 min |  | 71
COc1ccc(S(=O)(=O)Nc2ccc(NS(=O)(=O)c3ccc(OC)cc3)c3ccccc23)cc1 | 10 µM | 30 min | pH 7.4 | 5.6
Brc1ccccc1-c1nnc(CSc2nnnn2-c2ccccc2)o1 |  | 1 h |  | 6.6
CCC1CC2C(C)=CC3C(=O)CCCC3C=CC(C)=CC2C(=O)O1 (stereo not drawn) | 1 µM | 30 min | pH 7.4 | 7.12

Repeated from above:
Structure (SMILES) | tested at | time | pH | compound remaining [%]
COc1cc(C)c(-c2ccc(O)c3c2C[C@@H](C)N[C@@H]3C)c2cccc(O)c12 (single isomer, unassigned) | 1 µM | 30 min |  | 83
